Experimental data of several laboratories.
Parts stem from different laboratories: compare values within a part only.

Study 1 — technique: RNAcompete; molecule type: RNA; matrix: in vitro; tested at: 20 nM; notes: 7-mer, probes averaged, single round; reference: mean of 7-mers; reading: higher = stronger binding
Target: PABPC1L2, full length, GST fusion (mouse, UniProt A0ABA7IW68)
Residues (chain): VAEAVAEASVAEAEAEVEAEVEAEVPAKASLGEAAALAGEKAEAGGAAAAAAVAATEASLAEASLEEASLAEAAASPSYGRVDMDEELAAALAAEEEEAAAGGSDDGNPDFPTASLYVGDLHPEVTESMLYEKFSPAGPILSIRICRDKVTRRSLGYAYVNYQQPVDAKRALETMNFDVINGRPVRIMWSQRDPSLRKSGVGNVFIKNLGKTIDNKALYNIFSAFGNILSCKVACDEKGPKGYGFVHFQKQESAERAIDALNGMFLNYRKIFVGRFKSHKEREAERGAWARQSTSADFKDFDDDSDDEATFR
Oligonucleotide	7-mer Z-score
CGGCCUU	-0.316
UACCUGU	-0.311
UCGGUCC	-0.235
AUGUUGG	-0.235
ACCGUAU	-0.141
GGGGUAU	0.122
CGGCCGG	-0.222
GCUUCUU	-0.284
GGCUGGU	0.0986
AAACAUC	1.73
GAGGUCC	-0.159
CGAACAC	-0.079
CCCGGUC	-0.293
UCAAGGG	0.135
UUGGCUA	-0.184
UCGGGGG	0.32
AGCCUAC	-0.351
CAGAAAA	5.19
AAGCCAG	0.0497
GCGGUAU	-0.0101

Study 2 — technique: protein-binding microarray; molecule type: double-stranded DNA, one strand shown; matrix: in vitro; tested at: not given; reading: higher = stronger binding
Target: Transcriptional repressor CTCF (CTCF, Homo sapiens, UniProt P49711, residues 1-727, full length assumed)
Notes: k-mer, scored over probes, only values ≥0.25
Target sequence (chain): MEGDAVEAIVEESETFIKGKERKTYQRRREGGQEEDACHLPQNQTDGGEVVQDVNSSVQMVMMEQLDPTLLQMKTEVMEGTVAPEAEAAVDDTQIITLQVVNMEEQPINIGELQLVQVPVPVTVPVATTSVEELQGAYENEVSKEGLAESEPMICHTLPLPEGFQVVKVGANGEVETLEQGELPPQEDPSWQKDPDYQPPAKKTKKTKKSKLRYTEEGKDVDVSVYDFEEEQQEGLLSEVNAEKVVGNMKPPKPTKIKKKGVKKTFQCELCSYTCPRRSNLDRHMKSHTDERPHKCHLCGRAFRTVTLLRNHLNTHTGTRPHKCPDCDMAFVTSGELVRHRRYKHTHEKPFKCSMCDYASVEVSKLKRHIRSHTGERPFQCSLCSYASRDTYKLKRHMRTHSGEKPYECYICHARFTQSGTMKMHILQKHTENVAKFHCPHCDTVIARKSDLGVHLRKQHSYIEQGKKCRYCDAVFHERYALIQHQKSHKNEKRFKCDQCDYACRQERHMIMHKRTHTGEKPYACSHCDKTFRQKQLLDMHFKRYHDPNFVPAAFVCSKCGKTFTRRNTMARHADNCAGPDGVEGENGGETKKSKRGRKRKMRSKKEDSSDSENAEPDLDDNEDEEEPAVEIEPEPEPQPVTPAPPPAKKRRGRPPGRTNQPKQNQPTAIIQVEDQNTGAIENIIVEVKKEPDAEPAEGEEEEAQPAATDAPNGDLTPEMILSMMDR
Oligonucleotide	E-score
ACAAATAC	0.274
CAGTGCGC	0.255
CATATTAA	0.351
CGCAAAAA	0.309
ATTGCGCA	0.336
GGATAGTA	0.261
ACCTAGTG	0.323
TAATATTA	0.402
ATGAATGC	0.299
AATAATTG	0.279
ACAACATA	0.321

Study 3 — technique: RNA Bind-n-Seq; molecule type: RNA; matrix: in vitro; tested at: 365 nM; reference: no-protein control; reading: higher = stronger binding
Target: RNA binding protein fox-1 homolog 2, RRM domain, GST-SBP tag (RBFOX2, Homo sapiens, UniProt O43251-10, residues 100-194)
Notes: natural RNA segment, single round, ends assumed
All sequences stand within: GGGAGUUCUACAGUCCGACGAUC … UGGAAUUCUCGGGUGCCAA
Construct (chain): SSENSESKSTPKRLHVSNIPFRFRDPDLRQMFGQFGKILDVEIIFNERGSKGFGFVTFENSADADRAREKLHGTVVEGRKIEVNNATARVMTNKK
Oligonucleotide	RBNS enrichment (R)
AGAGACAUCAUCACAAAACAGUAAAAACAAAAUCAACCCUGAACCCCAUGCACUGUGCUGCUUCCUGAGCCUGGCCCUGCAUCCUCAUAGAGGUGCCGGGUUCCUAUUGG	0.511
CUGGAGAAGGUGGGCACUGGAUUAGUUAACAGACAACACGUUACUAGCAGUCACUUGAUCUCCGUGGCUUUGGUUUAAAAGACACACUUGUCCACAUAGGUUUAGAGAUA	0.232
GAUGAGUUUUUUUGUGGGUUGCUUUUUCUUCAGUGCUAAGAAAGUUCCCUCCAACAGGAACUCUCUGACCUGUUUAUUCAGGUGUAUUUCUGGUUUGGAUUUUUUUUUCC	0.594
ACUGUGGUCCCCUGGGCCCUGACCCCAGACAUGUAAAUACUCCUCAAAUUUGGAAAAGUUGUCCCAUCCCUUCCCCCUUUGCCCCAGUGUCCCUGCUCACUUCCAGUCAG	0.437
UGACUUGUGCUGUAUGAUUCUCACUGAAGAAUUUCCUUUCAGCCAAGAAGCAGUGAGGUCUGGGAAUAUUCCAAAGUCAUGUCUCUGAAUAUGUGUCCUUGACGUGCAAG	0.354
CAGUAUAUGUUUUGGGAUUUUUCUGUAAAAUGGGUGUAAUUUUCCUAAUACAGGUAUGUAACAACAAAAGAAGUUGCCUGCAUGCCGGUCCAAAUUGUUCUGUAUAAAGA	1.07
GUGUUACAAGGGAGAACUCAUUUGAGAUCAGUCUGUUGGCAUUGCAAUGAAGUGCUUUGUAUCAGGAAAGUGUACACUAUUGACCUUUUUUCCUGUUCACAAGCUGAGCC	3.88
CUCACCCUGACAUAUGCCCACAUCCAUGCUGGGGCCUGGGUUCAGCCUGGCCUGCCCAGCCCUGGUCAUCCAGCUGUACUGGCCCCUGGGGGGCCCCUUUGGGAGCAGGC	0.452
AAGCAGUCCUGGAGAUCCCAUUAUUAAUAAAACAAAAAGGCCUGCAGAGAUUCCUGACCACUGAUCAUGCGGCCAGGAAGGGGGACCAAGAGUAAACCCCAUCUUAAUUA	0.579
UAUUUCAAGAUAUGUUCUCAAGCCAAUUGUGUGCUUCUCUUGUUUCUGUGAUUGCUUUCUAGCCAAAGCGAAGCUUGUACAGGUUGAGUAUCCCUUAUCCAAAAUGCUUG	0.419
AGACACUGCCGGACUCCUGCCCACAGGGGCGUGGCCUGAAGGGCGAGUGUGAACAUGGCACUGCUGUUCCCUUCCCCCUCCCUGCACCCGCCGCAGCCUGCCAUCCCAUU	0.767
CCAUGAGCAAUUGUUUGCUCUUGAAAACCUCACUGCAAGGCUGAGGCUGAGCUUCUGAUUCACCACCCCAGGGCCUCCUUAUAGUUCUCUGCACACAAUAGGUGCUUCUU	0.311

Study 4 — organism: Saccharomyces cerevisiae; effect on: binding; technique: competitive growth deep sequencing; molecule type: peptide; strain: cyclin D2-Cln2 fusion strain; tested at: concentration not given; notes: peptide tiling library; reading: direction not given
Molecule	growth enrichment score
NEGVSNAVRRSLYIRD	-0.941
KSKHEEEEWTDDDLVE	0.62
NSMKELNFSHLPSNSV	0.804

For quick reference, copied from above (study 1):
Oligonucleotide	7-mer Z-score
UCGGUCC	-0.235
GGGGUAU	0.122
AAACAUC	1.73
CGGCCGG	-0.222
